Experimental data gathered from unrelated publications.
A part holds a random share of what one study measured. Substitutions count along the parent as printed.

Set 1
Organism: Saccharomyces cerevisiae
Read-out: binding
Technique: yeast competitive growth sequencing
Molecule type: peptide
Strain: cyclin D1-Cln2 strain
Sample: peptide tiling library
Reading: direction not given
Quantity: enrichment score
ASVLSKPIFCFVKD: 1.43
NESHLDKEHDAVEVAD: 1.47
RQVRRDLFAF: -2.04
RTEALEQGGLPKKLIF: 0.801
AKRSLGFLPQPVPL: -1.29
ATNSSHTDAHEILVSD: 1.59
PHKTFRKLRLFDTPHT: -2.34
ESSQLTVQAEFDMSAI: 1.61
LENIEPLQVSFAVLSS: 2.36
GPVKLEFDVSDGAT: 0.23

Set 2
Target: Ras GTPase-activating protein-binding protein 1, full length (G3BP1, Homo sapiens, UniProt Q13283)
Chain of UniProt Q13283 (whole entry, looked up): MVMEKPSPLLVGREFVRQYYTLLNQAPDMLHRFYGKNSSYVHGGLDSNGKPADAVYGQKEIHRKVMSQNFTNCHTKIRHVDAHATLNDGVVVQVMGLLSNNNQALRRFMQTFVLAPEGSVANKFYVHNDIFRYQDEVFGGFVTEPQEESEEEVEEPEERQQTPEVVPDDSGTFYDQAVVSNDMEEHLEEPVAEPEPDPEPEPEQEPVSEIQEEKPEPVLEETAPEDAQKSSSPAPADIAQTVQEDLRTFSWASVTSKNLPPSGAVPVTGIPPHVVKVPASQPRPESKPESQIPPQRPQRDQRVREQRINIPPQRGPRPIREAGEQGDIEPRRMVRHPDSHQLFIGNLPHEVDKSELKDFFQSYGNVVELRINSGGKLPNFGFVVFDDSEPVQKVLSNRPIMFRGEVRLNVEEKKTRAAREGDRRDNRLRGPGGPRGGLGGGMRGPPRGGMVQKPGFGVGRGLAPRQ
Technique: RNA Bind-n-Seq
Molecule type: RNA
Sample: in vitro
Tested at: 200 nM
Setting: whole 134-nt RNA, ends assumed
Together with: 150 mM LiCl
Reference: input library
Reading: higher = stronger binding
Quantity: log2 enrichment
Each molecule: 7-deaza-guanosine replaces G
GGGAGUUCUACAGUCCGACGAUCUAACUUUAGAGGAGGAUCUGAUGGAUAUGGCAGUGGACGUGGAUUUGGGGAUGGCUAUAAUGGUUAUGGAGGAGGACCUGGAGGUGGCAAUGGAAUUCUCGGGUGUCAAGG: -0.0612
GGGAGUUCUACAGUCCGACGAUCUCCUGUGCUACACAUCGUAUGUACCGAAUCGUGUGUGUGUGUGUGUGUGUGUGUGUGUGAAAGUAUUAUGUUACGCCGUUCGGAUCUGCAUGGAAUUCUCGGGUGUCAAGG: -0.485
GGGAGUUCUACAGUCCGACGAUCAGUCCUGUGCUACACAUCGUAUGUACCGAAUCGGGCCCCCGGGCCCCCGGCCCCCGGGAAAGUAUUAUGUUACGCCGUUCGGAUCUGCACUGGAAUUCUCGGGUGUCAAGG: -1.5
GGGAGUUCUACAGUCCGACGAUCUCAAGUCCUGUGCUACACAUCGUAUGUACCGAAUCGGGGCCGGCCGGGGCCGGGAAAGUAUUAUGUUACGCCGUUCGGAUCUGCACUUCCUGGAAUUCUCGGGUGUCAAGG: 0.319
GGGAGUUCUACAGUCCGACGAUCAAGUCCUGUGCUACACAUCGUAUGUACCGAAUCGGGGUGGGGUUUGGGGUUUGGGGAAAGUAUUAUGUUACGCCGUUCGGAUCUGCACUUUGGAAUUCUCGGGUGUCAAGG: -1.17
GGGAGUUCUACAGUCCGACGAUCUAACUUUAGCGGAGGAUCUGAUGGAUAUGGCAGUGGACGUGGAUUUGGGGAUGGCUAUAAUGGGUAUGGAGGAGGACCUGGAGGUGGCAAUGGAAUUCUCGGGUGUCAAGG: -0.0911
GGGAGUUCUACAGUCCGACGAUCAAGUCCUGUGCUACACAUCGUAUGUACCGAAUCGGGUUUUUUUGGGUUUGGGUGGGAAAGUAUUAUGUUACGCCGUUCGGAUCUGCACUUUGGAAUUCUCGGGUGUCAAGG: -0.566
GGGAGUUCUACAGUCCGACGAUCCAAGUCCUGUGCUACACAUCGUAUGUACCGAAUCGGUGGAAAAAGGUUUUUUUGGAAAGUAUUAUGUUACGCCGUUCGGAUCUGCACUUCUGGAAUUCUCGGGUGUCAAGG: -1.11
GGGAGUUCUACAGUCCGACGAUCUUAUCACCAGGACUGCCAUGUUCCCAGGGCUCCAGCCCCUGGAGAGGGAGAGGGCACAUCCUGGGUAUGCCGCCAGUGUGUCUUUGCGAUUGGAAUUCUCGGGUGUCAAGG: -0.958
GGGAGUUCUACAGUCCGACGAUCCCUGUGCUACACAUCGUAUGUACCGAAUCAAAUUUUUUUAAAUUUUUAAACCCCCCCAAAAAAGUAUUAUGUUACGCCGUUCGGAUCUGCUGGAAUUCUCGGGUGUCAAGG: 1.47

Set 3
Target: ABI1, truncated, D143A, DHFR fusion (Arabidopsis thaliana)
Technique: DHFR PCA, deep sequencing
Sample: yeast
Setting: methotrexate growth selection, single substitutions
Together with: (+)-ABA 58 µM
Reference: wild-type fitted maximum
Reading: higher = stronger binding
Quantity: relative binding score
Starting sequence: PYL1, truncated, DHFR fusion (Arabidopsis thaliana); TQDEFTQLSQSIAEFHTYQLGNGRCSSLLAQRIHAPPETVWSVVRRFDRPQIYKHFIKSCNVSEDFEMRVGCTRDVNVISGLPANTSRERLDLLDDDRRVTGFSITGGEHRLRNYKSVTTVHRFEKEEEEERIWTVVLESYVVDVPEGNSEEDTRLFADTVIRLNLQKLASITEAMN; partner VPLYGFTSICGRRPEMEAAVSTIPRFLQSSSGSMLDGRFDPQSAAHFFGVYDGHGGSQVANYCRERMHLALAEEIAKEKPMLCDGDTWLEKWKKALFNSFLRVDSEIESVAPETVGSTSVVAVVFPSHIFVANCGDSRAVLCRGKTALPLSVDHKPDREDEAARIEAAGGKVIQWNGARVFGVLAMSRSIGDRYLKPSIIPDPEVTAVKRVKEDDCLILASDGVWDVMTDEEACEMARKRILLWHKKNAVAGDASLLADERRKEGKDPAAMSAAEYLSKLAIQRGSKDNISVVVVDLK
Y18M: 68.2%
D92N: 55.4%
H55A: 91.9%
D96V: 20%
E130F: 89.6%
T39R: 88.5%
E38A: 73.3%
S87P: 7.31%
R90A: 50.5%
S117A: 69.7%
G23S: 81.1%
E147Q: 81.1%
E109V: 81.5%

Single results of other studies
PhoQ, residues 284 288 289 292 302 303 TSTLRA  fold induction (PhoP, residues 12 14 15 18 19 MHTVL (Escherichia coli, UniProt P23836); Sort-seq, item: YFP reporter; E. coli; PhoQ-PhoP variant library, together with: 10 µM Mg2+; reference: high Mg2+ state, higher = stronger signaling): 1.93

Repeated from above (set 2):
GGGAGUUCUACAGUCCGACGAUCAAGUCCUGUGCUACACAUCGUAUGUACCGAAUCGGGGUGGGGUUUGGGGUUUGGGGAAAGUAUUAUGUUACGCCGUUCGGAUCUGCACUUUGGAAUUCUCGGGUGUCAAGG: -1.17
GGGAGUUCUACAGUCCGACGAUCUAACUUUAGCGGAGGAUCUGAUGGAUAUGGCAGUGGACGUGGAUUUGGGGAUGGCUAUAAUGGGUAUGGAGGAGGACCUGGAGGUGGCAAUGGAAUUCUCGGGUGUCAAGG: -0.0911
